{"data": "Assay results pooled from the literature", "organism": "Staphylococcus aureus", "note": "Protocols differ between the studies behind these lines. “And” joins repeats or separate records; there may be more than shown. Numbers after ± are the reported error."}
{"Compound": "CC[C@H](C)[C@@H]1NC(=O)[C@@H](CCCNC(=N)N)NC(=O)[C@@H](NC(=O)[C@@H](CC(C)C)NC(=O)[C@H](C)NC(=O)[C@H](C)NC(=O)[C@@H]2CCCN2C(=O)[C@@H](CC(C)C)NC(=O)[C@@H](NC(=O)[C@@H](CCCNC(=N)N)NC(=O)[C@@H](CC(C)C)NC(=O)[C@@H](CC(C)C)NC(=O)[C@@H](NC(=O)[C@@H](CCCNC(=N)N)NC(=O)[C@@H](CC(C)C)NC(=O)[C@@H](NC(=O)[C@@H](NC(=O)CNC(=O)[C@@H](CC(C)C)NC(=O)[C@@H](N)Cc2ccccc2)[C@@H](C)O)C(C)C)C(C)C)C(C)C)CSSC[C@@H](C(=O)O)NC(=O)[C@@H](CCCNC(=N)N)NC(=O)[C@@H](CCCNC(=N)N)NC(=O)[C@H](Cc2ccccc2)NC1=O", "system": "MRSA NCTC 12493, Galleria mellonella larvae", "setting": "32 mg/kg, titanium implant biofilm infection", "measurement": "survival rate", "value": "75%"}
{"Compound": "COc1ccc(CC2[NH2+]CCc3cc(OC)c(OC)cc32)cc1OC.[Cl][Fe-]([Cl])([Cl])[Cl] (stereo not shown)", "setting": "24 h, 37 °C", "measurement": "MIC50", "value": "647 µM"}
{"Compound": "CC[C@H](C)[C@H](NC(=O)[C@H](CC(C)C)NC(=O)[C@H](CC(=O)O)NC(=O)[C@H](CCCNC(=N)N)NC(=O)[C@H](Cc1c[nH]c2ccccc12)NC(=O)[C@@H](N)CC(C)C)C(=O)N[C@@H](CS)C(=O)N[C@@H](CC(C)C)C(=O)N[C@@H](CS)C(=O)N[C@@H](CCCNC(=N)N)C(=O)N[C@@H](CC(N)=O)C(=O)N[C@@H](CCCNC(=N)N)C(=O)N[C@@H](CCCNC(=N)N)C(=O)N[C@@H](CS)C(=O)N[C@@H](CC(N)=O)C(=O)N[C@@H](CCCNC(=N)N)C(=O)NCC(=O)N[C@@H](CCC(N)=O)C(=O)N[C@@H](CC(C)C)C(=O)N[C@@H](Cc1ccccc1)C(=O)N1CCC[C@H]1C(=O)NCC(=O)N[C@@H](Cc1c[nH]c2ccccc12)C(=O)N[C@@H](CS)C(=O)N1CCC[C@H]1C(=O)NCC(=O)N[C@@H](Cc1c[nH]c2ccccc12)C(=O)N[C@@H](Cc1c[nH]c2ccccc12)C(=O)N[C@@H](CC(C)C)C(=O)N[C@@H](CCCNC(=N)N)C(=O)N[C@@H](CS)C(=O)N[C@@H](CS)C(=O)N[C@@H](CCCNC(=N)N)C(=O)N[C@@H](CCCNC(=N)N)C(N)=O", "assay": "colony count", "setting": "50 µg/mL, 2 h, 37 °C, pretreated trypsin intestinal fluid, together with: trypsin 1 mg/mL", "measurement": "bactericidal rate", "value": "92%"}
{"Compound": "O[C@]12C=C(c3nccc4c3[nH]c3ccccc34)[C@@H]3CCN(CCCC/C=C\\CC1)C[C@@]31C[C@@H]3/C=C\\CCCCN3[C@H]12", "assay": "growth", "system": "ATCC 43300, MRSA", "measurement": "IC50", "value": "1.8 ± 0.03 µg/mL"}
{"Compound": "CCCCCCCCCC(=O)OCCSC[C@H](N)C(=O)N[C@H](CCN)C(=O)N[C@@H](CCN)C(=O)N[C@@H](CCN)C(=O)N[C@@H](CC(C)C)C(=O)N[C@H](Cc1ccccc1)C(=O)N[C@@H](CCN)C(=O)N[C@@H](CCN)C(=O)N[C@@H](CC(C)C)C(N)=O", "system": "ATCC 6538", "setting": "24 h, 37 °C", "measurement": "MBC", "value": "8 µM"}
{"Compound": "CC1COC2=C1C(=O)C(=O)c1c2ccc2c1C(OC(=O)CNC(=O)CN)CCC2(C)C (mixture of isomers)", "setting": "10 µmol/mL, 48 h, 10 µL on 6 mm disc", "measurement": "inhibition zone diameter", "value": "16 ± 0.5 mm"}
{"Compound": "CC(C)[C@H]1NC(=O)[C@H](Cc2ccccc2)NC(=O)[C@@H](C(C)C)NC(=O)[C@@H](C)NC(=O)[C@H](CO)NC(=O)[C@@H](Cc2c(-c3ccc(-c4ccccc4)cc3)[nH]c3ccccc23)NC(=O)[C@@H](CO)NC1=O", "assay": "broth dilution", "measurement": "MIC90", "value": "> 50 µM"}
{"Compound": "CC[C@H](C)[C@@H]1NC(=O)[C@H](CO)NC(=O)C(C)(CCCCN)NC(=O)[C@@H]2CSSC[C@@H](C(=O)N[C@@H](Cc3ccc(O)cc3)C(N)=O)NC(=O)[C@H](CCCCN)NC(=O)[C@@H]3CSSC[C@H](NC(=O)[C@H](CCCNC(=N)N)NC(=O)C(C)(CC(C)C)NC(=O)[C@H](CC(=O)O)NC(=O)[C@H](CC(=O)O)NC(=O)[C@H](CCC(=O)O)NC(=O)[C@H](CC(N)=O)NC(=O)[C@H](Cc4c[nH]c5ccccc45)NC(=O)C(C)(CC)NC(=O)CNC(=O)[C@H](CC(N)=O)NC(=O)[C@@H](NC(=O)CNC(=O)[C@H](Cc4ccccc4)NC(=O)CN)CSSC[C@H](NC(=O)[C@H](Cc4ccc(O)cc4)NC(=O)CNC(=O)CNC(=O)[C@H](CCCCN)NC(=O)[C@H](Cc4ccc(O)cc4)NC(=O)[C@H]4CCCN4C(=O)[C@@H]4CCCN4C1=O)C(=O)N[C@@H](C)C(=O)N[C@@H](CCCCN)C(=O)N1CCC[C@@H]1C(=O)NCC(=O)N[C@@H](Cc1ccccc1)C(=O)N[C@@H](C(C)C)C(=O)N3)C(=O)N[C@@H](Cc1c[nH]cn1)C(=O)NC(C)(C)C(=O)N[C@@H](Cc1c[nH]cn1)C(=O)N2 (stereo partly shown)", "system": "USA300 MRSA", "setting": "24 h", "measurement": "MBC", "value": "4 µM"}
{"Compound": "CC(=O)N[C@@H](CC(C)C)C(=O)N[C@H]1CSSC[C@@H](C(=O)N2CCC[C@H]2C(N)=O)NC(=O)[C@H]([C@@H](C)O)NC(=O)[C@H](C(C)C)NC(=O)[C@H]([C@@H](C)O)NC(=O)CNC(=O)[C@H](CC(C)C)NC(=O)[C@H](Cc2ccccc2)NC(=O)[C@H](Cc2ccc(O)cc2)NC(=O)[C@H](CC(C)C)NC(=O)[C@H](CCCCN)NC(=O)[C@H](Cc2ccccc2)NC(=O)[C@H](CCCNC(=N)N)NC(=O)[C@H](CCC(N)=O)NC(=O)[C@H](CC(C)C)NC(=O)[C@H](CCCCN)NC(=O)[C@@H]2CCCN2C(=O)[C@H](CCCCN)NC(=O)[C@H](C(C)C)NC(=O)[C@H](CCCCN)NC(=O)[C@H](Cc2ccc(O)cc2)NC(=O)[C@H]([C@@H](C)O)NC1=O", "setting": "2.5 µM, 2 h, 37 °C", "how to read": "reference: untreated", "measurement": "killed bacteria", "value": "38.7%"}
{"Compound": "CC(C)[C@H]1NC(=O)[C@H](Cc2ccccc2)NC(=O)[C@@H](C(C)C)NC(=O)[C@@H](C)NC(=O)[C@H](CO)NC(=O)[C@@H](Cc2c(-c3ccc(-c4ccccc4)c(F)c3)[nH]c3ccccc23)NC(=O)[C@@H](CO)NC1=O", "assay": "broth dilution", "measurement": "MIC90", "value": "> 50 µM"}
{"Compound": "OB(O)c1ccc(C(F)(F)F)s1", "system": "USA300 wild type", "setting": "1 µM", "how to read": "reference: untreated", "measurement": "growth relative to untreated", "value": "98.8% and 102% and 86.9% and 86.3% and 86.6% and 95.2%"}
{"Compound": "N=C(N)NCCC[C@H](NC(=O)[C@H](Cc1c[nH]c2ccccc12)NC(=O)[C@H](CCCNC(=N)N)NC(=O)[C@H](CCCNC(=N)N)NC(=O)[C@@H]1CCCN1C(=O)[C@H](CCCCN)NC(=O)[C@@H](N)CCCNC(=N)N)C(=O)N[C@@H](Cc1c[nH]c2ccccc12)C(=O)N[C@@H](Cc1c[nH]c2ccccc12)C(=O)N1CCC[C@H]1C(=O)N[C@@H](CCCCN)C(=O)N[C@@H](CCCNC(=N)N)C(=O)N1CCC[C@H]1C(=O)O", "system": "09057, female BALB/c mice, sepsis, spleen", "setting": "intraperitoneal, 20 mg/kg", "measurement": "log bacterial load", "value": "4.93 log(CFU/g) and 5.38 log(CFU/g) and 5.77 log(CFU/g) and 5.78 log(CFU/g) and 5.79 log(CFU/g) and 4.75 log(CFU/g)"}
{"Compound": "CCc1ccn2c(C(=O)NC(C)c3ccccc3)c(C)nc2c1 (stereo not shown)", "assay": "microbial growth", "system": "SG511", "setting": "2 mM", "measurement": "inhibition zone", "value": "0 mm"}
{"Compound": "CCCNC(=O)[C@H](Cc1ccc(O)cc1)NC(=O)[C@@H]1Cc2ccc(O)c(c2)-c2cc(ccc2O)C[C@@H](NC(=O)[C@H](CC(N)=O)NC(=O)[C@@H](Cc2ccc(O)cc2)NC(=O)[C@@H](CC(C)C)NC)C(=O)N[C@H](c2ccc(O)cc2)C(=O)N1", "assay": "bacterial growth", "measurement": "IC50", "value": "> 40 µM"}
{"Compound": "CC(C)C[C@H](NC(=O)[C@H](CC(C)C)NC(=O)[C@H](CCCCN)NC(=O)[C@H](Cc1ccccc1)NC(=O)[C@@H](NC(=O)[C@H](CCCNC(=N)N)NC(=O)[C@@H](N)CCCCN)C(C)C)C(=O)N[C@@H](CCCCN)C(=O)N[C@@H](CCCNC(=N)N)C(=O)N[C@@H](Cc1ccc(O)cc1)C(=O)N[C@@H](Cc1c[nH]c2ccccc12)C(=O)N[C@@H](CCCNC(=N)N)C(=O)N[C@@H](CCC(N)=O)C(=O)N[C@@H](CC(C)C)C(=O)N[C@@H](CCCCN)C(=O)N[C@@H](CCCCN)C(=O)N1CCC[C@H]1C(=O)N[C@H](C(=O)N[C@@H](CCCNC(=N)N)C(=O)NCCOCCOCC(=O)O)C(C)C", "assay": "Congo red staining", "system": "ATCC 25295", "setting": "4 h, 37 °C", "measurement": "minimum concentration for visible aggregation", "value": "≥ 20 µM"}
{"Compound": "CCc1ccn2c(C(=O)N(C)Cc3ccccc3)c(C)nc2c1", "assay": "microbial growth", "system": "SG511", "setting": "2 mM, 20 h", "measurement": "inhibition zone", "value": "0 mm"}
{"Compound": "CCCNC(=O)[C@H](Cc1ccc(O)cc1)NC(=O)[C@H](Cc1ccc(O)cc1)NC(=O)[C@H](NC(=O)[C@@H](Cc1ccc(O)cc1)NC(=O)[C@H](CC(N)=O)NC(=O)[C@@H](Cc1ccc(O)cc1)NC(=O)[C@@H](CC(C)C)NC)c1ccc(O)cc1", "assay": "bacterial growth", "measurement": "IC50", "value": "> 40 µM"}
{"Compound": "COc1cc(OC)cc(B(O)O)c1", "assay": "crystal violet", "system": "USA300 wild type", "setting": "10 µM", "how to read": "reference: wild type untreated", "measurement": "biofilm formation", "value": "48.9% and 45.9% and 45.7%"}
{"Compound": "CC[C@H](C)[C@@H]1NC(=O)[C@H](CO)NC(=O)[C@H](CCCCN)NC(=O)[C@@H]2CSSC[C@@H](C(=O)N[C@@H](Cc3ccc(O)cc3)C(N)=O)NC(=O)[C@H](CCCCN)NC(=O)[C@@H]3CSSC[C@H](NC(=O)[C@H](CCCNC(=N)N)NC(=O)[C@H](CC(C)C)NC(=O)[C@H](CC(=O)O)NC(=O)[C@H](CC(=O)O)NC(=O)[C@H](CCC(=O)O)NC(=O)[C@H](CC(N)=O)NC(=O)[C@H](Cc4c[nH]c5ccccc45)NC(=O)[C@@H]4CCCN4C(=O)CNC(=O)[C@H](CC(N)=O)NC(=O)[C@@H](NC(=O)CNC(=O)[C@H](Cc4ccccc4)NC(=O)CN)CSSC[C@H](NC(=O)[C@H](Cc4ccc(O)cc4)NC(=O)CNC(=O)CNC(=O)[C@H](CCCCN)NC(=O)[C@H](Cc4ccc(O)cc4)NC(=O)CNC(=O)[C@H](CCCCN)NC1=O)C(=O)N[C@@H](C)C(=O)N[C@@H](CCCCN)C(=O)NCC(=O)NCC(=O)N[C@@H](Cc1ccccc1)C(=O)N[C@@H](C(C)C)C(=O)N3)C(=O)N[C@@H](Cc1c[nH]cn1)C(=O)N[C@@H](CC(N)=O)C(=O)N[C@@H](Cc1c[nH]cn1)C(=O)N2", "system": "ATCC 49775", "setting": "24 h", "measurement": "MBC", "value": "0.5 µM"}
{"note": "Repeated from above:"}
{"Compound": "CC[C@H](C)[C@@H]1NC(=O)[C@@H](CCCNC(=N)N)NC(=O)[C@@H](NC(=O)[C@@H](CC(C)C)NC(=O)[C@H](C)NC(=O)[C@H](C)NC(=O)[C@@H]2CCCN2C(=O)[C@@H](CC(C)C)NC(=O)[C@@H](NC(=O)[C@@H](CCCNC(=N)N)NC(=O)[C@@H](CC(C)C)NC(=O)[C@@H](CC(C)C)NC(=O)[C@@H](NC(=O)[C@@H](CCCNC(=N)N)NC(=O)[C@@H](CC(C)C)NC(=O)[C@@H](NC(=O)[C@@H](NC(=O)CNC(=O)[C@@H](CC(C)C)NC(=O)[C@@H](N)Cc2ccccc2)[C@@H](C)O)C(C)C)C(C)C)C(C)C)CSSC[C@@H](C(=O)O)NC(=O)[C@@H](CCCNC(=N)N)NC(=O)[C@@H](CCCNC(=N)N)NC(=O)[C@H](Cc2ccccc2)NC1=O", "system": "MRSA NCTC 12493, Galleria mellonella larvae", "setting": "32 mg/kg, titanium implant biofilm infection", "measurement": "survival rate", "value": "75%"}
{"Compound": "COc1ccc(CC2[NH2+]CCc3cc(OC)c(OC)cc32)cc1OC.[Cl][Fe-]([Cl])([Cl])[Cl] (stereo not shown)", "setting": "24 h, 37 °C", "measurement": "MIC50", "value": "647 µM"}
